Results collected from several papers.
Each numbered part is a random draw from the data of one study; scales do not carry over between parts.

Study 1 — method: RNA Bind-n-Seq; form: RNA; medium: in vitro; tested at: not given; setting: RNA with constant flanks, ends assumed; baseline: input RNA pool; direction: higher = stronger binding; quantity: bound/input enrichment
Target: RING finger protein unkempt homolog, zinc fingers 1-6, GST-SBP tag (UNK, Homo sapiens, UniProt Q9C0B0, residues 30-357)
Sequence of UniProt Q9C0B0 (30-357, looked up): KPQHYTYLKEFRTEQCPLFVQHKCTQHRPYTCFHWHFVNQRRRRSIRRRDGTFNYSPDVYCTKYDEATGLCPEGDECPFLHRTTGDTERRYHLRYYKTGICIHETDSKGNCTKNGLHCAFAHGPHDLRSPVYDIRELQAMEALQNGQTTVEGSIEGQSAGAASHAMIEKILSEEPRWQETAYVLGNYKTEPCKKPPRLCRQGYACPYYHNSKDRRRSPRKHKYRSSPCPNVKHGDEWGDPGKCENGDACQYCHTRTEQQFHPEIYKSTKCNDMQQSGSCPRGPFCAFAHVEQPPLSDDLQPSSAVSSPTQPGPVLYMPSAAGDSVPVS
Constant ends, left off below: GGGAGUUCUACAGUCCGACGAUC … CAACAGAGGAUUGAGCAUCA
CGGCCGAGUUCAGUGUCCCUUGUUCAGGGCUCUUGAUAAUGUUUGACCCAGUGGCAACACCCGCCGACGACCUGAUUUUAAAGCUGACCUCAGCCUCUGCAUCUUCUCUCGAGUAGUCCC: 0.277 ratio
AAAAAACCCCGAUUUUAGAUGUGAUAUUUAGGCUUUCAUUCCAGUUUGUUUUGUUUUUUUGUUCCGAUACCAAUCUUUUAAAUUCUUGCAUUUUAGUAAGAAAGCUAUCUUUUUAUGGAU: 19.2 ratio
UUCAGCCCCCUGAAAGCCUCUGGAGAUGGAGAAUCUCUGGAUGAAGAUUCCGAGUUCACCUCCGCCUCUGACUUUGAAAUUGGGCACUUUUUUCGUGAGCGCAUCGUGCCACGGGCUGUC: 0.0887 ratio
AGCCACAAAAUAUUUAAUGUGUUGUGCCUUCAUGAUGUAACAGAACAUUCUCCAGGCCGGCCGUUGGGGAAAAUAAAGGGAUAAAUCUCUAAUUAUUGCUGUUUAACUGUUUGUUAUCAU: 0.304 ratio
ACCACGCAUCUGUUUUGUCCCACAAUGCGCUUUUCUCUCCCAAAUCCCGAUUUCUGCUGUCACCGCCUCUAUUCAAUUUUUAUUUAUUGUCUGCCCUCCACUUAUACAAUCGUAGAGAGC: 1.05 ratio
GUGGCUGAUAUCUCUGUUGCUAAAAUAGAUCCUUUAGCACCUUUGGAUAAAGUCUGCCUUCCCGGUUGUGGCAUUUCAACCGGUUAUGGUGCUGCUGUGAACACUGCCAAGUUGGAGCCU: 0.34 ratio
CAUCUCAGGUCAUCUUCUGUGGAAGAUGUUAAACUAAUUACUAAUGAGGUAAGACCUGCUGCCGAAAUUAGAAGAUGCAGUAUGCCCUCAGUUAUCUGUGAGCCCAUAAAACAUUUCCAA: 0.255 ratio
ACAGAUGAAGCUGACCUGGUUCUUGCAAAAGAAGCUAACGUGAAGUGUCCACAGAUUGUGACCGCAUUUUAUGAAGAGAGACUGACGUGGCACGCAUAUCCAGAGGAUGCGGAAAACAAA: 0.207 ratio
GAAGACCCAUACCCACACAAGUUCCAUGUAGACAUCUCACUCACUGACUUCAUCCAAAAAUACCGUCACCUGCAGCCUGGGGAUCACCUGACUGACAUCACCUUAAAGGUGGCAGGUAGG: 0.389 ratio
CUCCUAAAAACUGUACCAAUUAUUCAGAAUCAGAUGGAUGCACUUCUUGAUUUUAAUGUUAACCGCAAUGAACUUACAAAUGGGGUAAUAAAUGCUGCCUUCAUGCUCCUGUUCAAAGAU: 0.391 ratio
UCUUCCUCUACAGCUACAGCUUCCACACAGACGCAGCAUUCGGGAAUGUCCCCGUCACCCCGCAACAGUUAUGAUACUUCCCCACAGCCUUGCACUACCAAUCAAAAUGGGAGGGAGAAU: 0.207 ratio

Study 2 — method: competition protein-binding microarray; form: double-stranded DNA, one strand shown; medium: in vitro; tested at: 2 µM; together with: Cbf1 competitor, 0.05 µM; direction: higher = stronger binding; quantity: fluorescence intensity; constant ends, left off below: … GTCTTGATTCGCTTGACGCTGCTG
Target: Phosphate system positive regulatory protein PHO4, full length, GST-tagged (PHO4, Saccharomyces cerevisiae, UniProt P07270, residues 1-312)
Setting: whole 60-bp probe, lowest competitor level
Residues (chain): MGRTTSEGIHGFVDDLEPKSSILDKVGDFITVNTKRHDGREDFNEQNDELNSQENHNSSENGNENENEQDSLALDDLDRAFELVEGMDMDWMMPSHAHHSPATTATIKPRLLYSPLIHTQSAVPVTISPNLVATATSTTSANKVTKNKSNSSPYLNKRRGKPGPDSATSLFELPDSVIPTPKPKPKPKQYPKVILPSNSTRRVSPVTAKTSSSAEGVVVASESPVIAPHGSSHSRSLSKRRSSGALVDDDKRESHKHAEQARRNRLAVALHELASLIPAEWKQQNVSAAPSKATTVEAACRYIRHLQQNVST
AATTGAGAGGGTTTTCACGGGTAGTGGGCACAATGT: 6460 a.u.
CGATGTTGAGGAAGTCCTGTGATATTTCAAATGTGG: 3750 a.u.
TCGGTACGCGGCTCTAGCGTGCTTTTTGGAAGGGCA: 4640 a.u.
GAAGTCCTTATTCCGCACGTTGCTACCGCCGGCTTG: 11900 a.u.
TCGTCGGTTTATTGTCTCGTGGTGATTTGCGTTAAA: 8520 a.u.
GACGGCCAAAAACTTCACATGCCGCCCAGCCAAGCA: 6310 a.u.
CTTTCCCGATCTTGAGCTGTGGGTGTAGCACATTTG: 4530 a.u.
TCTCATAAAAGTGAAACCGTGACGAATGTAAGATGT: 6920 a.u.
TTTTCAAGGGATAAGCACATGACAATGGGCGACAAA: 8100 a.u.
TTGGTCTACCAAATGCACCTGATTTACAAGCGGCTA: 3730 a.u.
CGGGTGAGGGGTTTGCACGTGACTCGGGTGCGGGTA: 14700 a.u.
CGGGGTTAAGTTTGCCTCGTGGGTGGCTTGCAGCAG: 12200 a.u.
CGGGGTTAAGTTTGTCACGACACTTGCTTGCAGCAG: 4410 a.u.
TTTTATCTCCGATAGTACGTGGGACTTTATTTATGG: 7930 a.u.
TGGAAATAACACTTCCACGTGGAACTATTAAATTGG: 15100 a.u.
CACGATTGCTATCGCAGTAATAGCCTAACCTCCATC: 3620 a.u.
CCTGCCGAAACGAGTCACGGCGATGAACAAAATAGG: 5990 a.u.
GCTCAAATAAAAGGACACGTGGTCAACCCTCAATCA: 18600 a.u.
AAAGCGGTAATTTGACGCGTGGGTGCAGATATCTAT: 9860 a.u.
CTCTCGATGGGCCATCACGTGAAGTAGGCACTATCA: 11800 a.u.
CTAACGAAGGTTTGTCACGTAACTTACAAGCCAAGT: 4400 a.u.
AAGAGAAAAAGTACAAACGTGTAGAGCAGGATGATC: 10100 a.u.
ACCTCGGCTGCGCCTTCCGTGATGGCCATCACTGTC: 3860 a.u.

Study 3 — method: protein-binding microarray; form: double-stranded DNA, one strand shown; medium: in vitro; tested at: 250 nM; setting: 60-bp whole probe; together with: salmon DNA 0.4 mg/ml; baseline: random background probes; direction: higher = stronger binding; quantity: log fluorescence; constant ends, left off below: GCCTAGCAC … GTCTTGATTCGCTTGACGCTGCTG
Target: Interferon regulatory factor 5, full length, phosphomimetic (IRF5, Homo sapiens, UniProt Q13568-2, residues 1-514, K96S/S451D/S453D/S456D/S462D)
TCATATTTTTTTCCAGAACTGTGCTAG: 0.884 z-score
GACGTTTTCAGACTGGAGACGTGCTAG: 0.412 z-score
GAGATCATCCGTTTCTTCTAGTGCTAG: 0.236 z-score
TTAGGTCTCGGACTGGCTTAGTGCTAG: -0.212 z-score
GACGGTCTACTTCTCCTGACGTGCTAG: -0.151 z-score
GGCGGACTGCTTATCCTGACGTGCTAG: -0.71 z-score
TTGGGTATCGGTTTCGGTTAGTGCTAG: 11 z-score
GACGGTTTCCGTATCGGGACGTGCTAG: 2.44 z-score
TCTTTTATGGTATTTTTTTGGTGCTAG: 1.24 z-score
TTAGATCTCAGTAGCGATTAGTGCTAG: 0.37 z-score
TCATTTTACTTTCTATCACTGTGCTAG: 6.16 z-score
CTAATTTTCAATTCCTGAAAGTGCTAG: 2.2 z-score
GAAGGTATCGGGACTGGGGACGTGCTA: 0.942 z-score
GACGAACTGGGGACTGGACACGTGCTA: -0.232 z-score
GACGATTCCAGTTTCGACACGTGCTAG: 6.59 z-score
TCAACCATCTCATATAAAACTGTGCTA: 0.782 z-score
TTAGATTTTAGTTCCGATTAGTGCTAG: 1.97 z-score
GACGGTATCGGGTACCGGGACGTGCTA: 2.85 z-score
GAAGGTTTCGGTTCCGGGACGTGCTAG: 9.36 z-score
TCAGTTTTTACTTTCTGACTGTGCTAG: 2.57 z-score
GACGGAATCGACTTTCGGGACGTGCTA: 5.75 z-score
TTAGGACTGCTTCTCCCTTAGTGCTAG: -0.13 z-score
GACGGACTGGGTATGGGGACGTGCTAG: -0.396 z-score
GAGGATTTCGGGACTGGAGACGTGCTA: 0.99 z-score
GACGGTACCGGACTGGGGACGTGCTAG: -0.444 z-score

Study 4 — method: RNA Bind-n-Seq; form: RNA; medium: in vitro; tested at: 365 nM; baseline: no-protein control; direction: higher = stronger binding; quantity: RBNS enrichment (R)
Target: RNA binding protein fox-1 homolog 2, RRM domain, GST-SBP tag (RBFOX2, Homo sapiens, UniProt O43251-10, residues 100-194)
Setting: natural RNA segment, single round, ends assumed
Constant ends, left off below: GGGAGUUCUACAGUCCGACGAUC … UGGAAUUCUCGGGUGCCAA
Target sequence (chain): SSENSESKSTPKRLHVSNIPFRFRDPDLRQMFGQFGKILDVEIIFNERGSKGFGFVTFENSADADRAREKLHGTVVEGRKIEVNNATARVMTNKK
AAAAGAACAACAAAAAAACCCAGCACAAAACCGACGAUGGAGUUUGUUUCUUUGAUUUCUUUGCCAAUGGCAAGAAGAUGAGAUGCCCUCAGCACUGAGGAUUCUUGCCC: 0.274
GCCCCCAAUCCAGGAGUACCCCCCUUGCCACCAAGUCUCCUUUAUUGCCUGCCUCUGCUGUGAAUUAACUUGUUCUGUGUAUUAAACUGGGCCUGACCCCUCUGCCCACA: 1.37
AAGGUUAUUGUGGGAAACUGAGCUAAAGGAGUUAGCAUCUUUAUUUUUGUAUCAAAAAUAAAGGUUAUUUUGAAAUUAUUAGGAUUUUUACACAAUUCUGAAAUCUGUUG: 0.47
CCUGUUGGUCCCCUGUUCAGAAUGGAGUGCAGCCCGCCAGCGGAAAGUGUUCAUUCUGCAUAGGUGUGAGGCUUUAUCUGCACACAGGACAUGAAAACCAGCAGAAAGGC: 0.232
AUUCAAAAUUUGACAUGCUGUUUGUUUAGUCACUACAGUGCCCUCAAAGGGCAGACAUUGCAGCCUUUUUAUAUUGCCUGCCAAAAUUUGAAGUAUUAGAACAAAGUGUG: 0.278
UGUAUUAUUUUCCUAUAUCCUUGGUUCUUUUCUGAUAAUUUACAGAUUUAGCUUUUCUUUUGUUAUAUAAACUGCUAGCCACAAAUUUUAGUUAUGUAAAAGGCUACCCU: 1.33
AAGCCCUAGAGCCUUGAACCAGGAAUAUCCAGGAAGAGGAAAUUCCCUUUGAGCCCCCAGAUGGUAUUGCAGCUUCACUGCCUGCGUUCCUGGGAGCGUCUGGAGCUCAC: 0.451
UUGGGUCAACUGACAUCCAUUGUAUAUACUAAUUGGUUUCUUUCAAACUAUUUUUUUUUUUGGUUUGGUUUUGAAUUGUUGGUUUCUUUUCAUUUUAUCAAAAGCAGGGC: 0.513
CAGAUCUGUCUUUCCCAAAUGAAAGGUUAGUCCCAUAGACCACUGGCUAUUCAGGGAAAUUACUCUCUACCUCCCCAUGACAUGGAUGAUAAGUGUUGAGGGAUGAACAC: 0.468
AGUUCUGAGCCGGGCAAGUCGAGAGGGCUGUUGGACAGCUGCUUGUGGGCCCGGAGUAAUCAGGCAGCCUUCAUAGGCGGUCAUGUGUGCAUGUGAGCACAUGCGUAUAU: 1.57
CAUCCAUUCUGGAAACACCUGUAGGCAGAGGCUGCCGAGACAGACCCUCUGCCGCUGCUUCCAGGCUGGGCAGCACAAGGCCUUGCCUGGCCUGAUGAUGGUGGGUGGGU: 0.313
CACAUAAACAUAAUUACCAAUAAUAAAAAAUUUAAAUGAGUUAUCAAAGGCGAUUUAUCACAUGUAUAGAACAGGCCAAGUGUAGAAAAACAUAGAAGUCAUUGUUAGUC: 0.256

Some of these lines once more (study 4):
AAGGUUAUUGUGGGAAACUGAGCUAAAGGAGUUAGCAUCUUUAUUUUUGUAUCAAAAAUAAAGGUUAUUUUGAAAUUAUUAGGAUUUUUACACAAUUCUGAAAUCUGUUG: 0.47
CCUGUUGGUCCCCUGUUCAGAAUGGAGUGCAGCCCGCCAGCGGAAAGUGUUCAUUCUGCAUAGGUGUGAGGCUUUAUCUGCACACAGGACAUGAAAACCAGCAGAAAGGC: 0.232
AUUCAAAAUUUGACAUGCUGUUUGUUUAGUCACUACAGUGCCCUCAAAGGGCAGACAUUGCAGCCUUUUUAUAUUGCCUGCCAAAAUUUGAAGUAUUAGAACAAAGUGUG: 0.278
UGUAUUAUUUUCCUAUAUCCUUGGUUCUUUUCUGAUAAUUUACAGAUUUAGCUUUUCUUUUGUUAUAUAAACUGCUAGCCACAAAUUUUAGUUAUGUAAAAGGCUACCCU: 1.33
AAGCCCUAGAGCCUUGAACCAGGAAUAUCCAGGAAGAGGAAAUUCCCUUUGAGCCCCCAGAUGGUAUUGCAGCUUCACUGCCUGCGUUCCUGGGAGCGUCUGGAGCUCAC: 0.451
UUGGGUCAACUGACAUCCAUUGUAUAUACUAAUUGGUUUCUUUCAAACUAUUUUUUUUUUUGGUUUGGUUUUGAAUUGUUGGUUUCUUUUCAUUUUAUCAAAAGCAGGGC: 0.513
CAGAUCUGUCUUUCCCAAAUGAAAGGUUAGUCCCAUAGACCACUGGCUAUUCAGGGAAAUUACUCUCUACCUCCCCAUGACAUGGAUGAUAAGUGUUGAGGGAUGAACAC: 0.468
AGUUCUGAGCCGGGCAAGUCGAGAGGGCUGUUGGACAGCUGCUUGUGGGCCCGGAGUAAUCAGGCAGCCUUCAUAGGCGGUCAUGUGUGCAUGUGAGCACAUGCGUAUAU: 1.57
CAUCCAUUCUGGAAACACCUGUAGGCAGAGGCUGCCGAGACAGACCCUCUGCCGCUGCUUCCAGGCUGGGCAGCACAAGGCCUUGCCUGGCCUGAUGAUGGUGGGUGGGU: 0.313
